# Assay results pooled from the literature.
# Protocols differ between the studies behind these lines. Several values in a cell are separate wells, animals, samples, runs or records.
# STK38: Serine/threonine-protein kinase 38 (STK38, Homo sapiens, UniProt Q15208)
# Sequence of UniProt Q8IWT6 (whole entry, unmodified, looked up): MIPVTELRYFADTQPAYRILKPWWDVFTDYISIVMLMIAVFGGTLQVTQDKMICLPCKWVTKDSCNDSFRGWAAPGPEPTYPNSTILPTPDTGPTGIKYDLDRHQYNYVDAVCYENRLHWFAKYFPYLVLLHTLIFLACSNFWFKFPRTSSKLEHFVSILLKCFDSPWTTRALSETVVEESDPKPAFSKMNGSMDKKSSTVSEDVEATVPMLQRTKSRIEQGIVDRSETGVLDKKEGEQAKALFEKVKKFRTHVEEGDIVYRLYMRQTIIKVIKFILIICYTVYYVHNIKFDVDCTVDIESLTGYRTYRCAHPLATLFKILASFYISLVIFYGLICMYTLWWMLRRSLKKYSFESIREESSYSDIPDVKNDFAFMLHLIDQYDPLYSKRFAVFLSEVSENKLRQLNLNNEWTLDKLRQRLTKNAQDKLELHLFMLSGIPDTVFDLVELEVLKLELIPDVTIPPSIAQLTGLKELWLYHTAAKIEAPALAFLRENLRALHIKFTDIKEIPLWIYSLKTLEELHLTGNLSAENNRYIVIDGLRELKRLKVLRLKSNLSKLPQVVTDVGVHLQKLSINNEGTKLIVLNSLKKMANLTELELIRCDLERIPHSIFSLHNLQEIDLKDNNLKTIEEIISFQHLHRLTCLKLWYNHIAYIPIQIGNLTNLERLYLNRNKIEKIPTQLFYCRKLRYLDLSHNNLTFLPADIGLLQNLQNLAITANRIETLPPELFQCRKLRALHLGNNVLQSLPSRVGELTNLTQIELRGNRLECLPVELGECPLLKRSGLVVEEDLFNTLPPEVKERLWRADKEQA
# Sequence of UniProt Q15208 (whole entry, looked up): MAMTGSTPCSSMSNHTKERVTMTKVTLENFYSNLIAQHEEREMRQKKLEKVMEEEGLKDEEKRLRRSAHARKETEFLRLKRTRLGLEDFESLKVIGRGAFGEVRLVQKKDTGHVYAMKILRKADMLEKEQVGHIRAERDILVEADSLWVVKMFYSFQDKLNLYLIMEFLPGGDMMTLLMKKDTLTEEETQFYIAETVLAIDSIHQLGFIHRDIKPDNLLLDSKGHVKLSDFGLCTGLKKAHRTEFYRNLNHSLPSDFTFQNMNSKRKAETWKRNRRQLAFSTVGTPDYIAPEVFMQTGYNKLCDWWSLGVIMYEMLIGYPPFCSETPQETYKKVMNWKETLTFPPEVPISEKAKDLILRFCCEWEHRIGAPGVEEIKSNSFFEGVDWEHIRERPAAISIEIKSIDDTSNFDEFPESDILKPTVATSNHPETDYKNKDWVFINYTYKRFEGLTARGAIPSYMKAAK
# Sequence of UniProt P10721 (whole entry, looked up): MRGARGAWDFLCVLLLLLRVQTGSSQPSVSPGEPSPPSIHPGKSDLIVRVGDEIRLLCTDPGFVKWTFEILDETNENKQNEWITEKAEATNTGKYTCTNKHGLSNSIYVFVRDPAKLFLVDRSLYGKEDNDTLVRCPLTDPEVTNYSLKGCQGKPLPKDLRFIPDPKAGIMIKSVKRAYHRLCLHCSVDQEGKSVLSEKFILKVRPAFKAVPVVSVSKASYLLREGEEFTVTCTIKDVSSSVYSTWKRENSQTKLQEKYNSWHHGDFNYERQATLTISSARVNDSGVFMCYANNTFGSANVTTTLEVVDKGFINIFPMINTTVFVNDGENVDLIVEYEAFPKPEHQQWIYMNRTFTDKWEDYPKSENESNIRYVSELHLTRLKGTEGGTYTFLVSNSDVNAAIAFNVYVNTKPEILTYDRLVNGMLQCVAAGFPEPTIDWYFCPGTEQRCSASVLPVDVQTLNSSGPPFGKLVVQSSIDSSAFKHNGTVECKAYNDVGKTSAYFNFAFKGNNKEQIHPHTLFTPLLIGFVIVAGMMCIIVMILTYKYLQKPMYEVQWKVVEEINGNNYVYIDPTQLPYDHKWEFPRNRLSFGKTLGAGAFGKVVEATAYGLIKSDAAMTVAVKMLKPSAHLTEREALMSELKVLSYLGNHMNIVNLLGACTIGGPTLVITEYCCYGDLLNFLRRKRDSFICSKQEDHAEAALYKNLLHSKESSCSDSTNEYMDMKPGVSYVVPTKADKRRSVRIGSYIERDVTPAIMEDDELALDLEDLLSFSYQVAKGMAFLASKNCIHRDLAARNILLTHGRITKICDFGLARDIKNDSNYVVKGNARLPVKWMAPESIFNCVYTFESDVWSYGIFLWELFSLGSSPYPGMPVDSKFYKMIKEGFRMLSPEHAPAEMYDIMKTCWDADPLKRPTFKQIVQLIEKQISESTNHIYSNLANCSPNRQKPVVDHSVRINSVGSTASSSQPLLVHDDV
# Sequence of UniProt P11802 (whole entry, looked up): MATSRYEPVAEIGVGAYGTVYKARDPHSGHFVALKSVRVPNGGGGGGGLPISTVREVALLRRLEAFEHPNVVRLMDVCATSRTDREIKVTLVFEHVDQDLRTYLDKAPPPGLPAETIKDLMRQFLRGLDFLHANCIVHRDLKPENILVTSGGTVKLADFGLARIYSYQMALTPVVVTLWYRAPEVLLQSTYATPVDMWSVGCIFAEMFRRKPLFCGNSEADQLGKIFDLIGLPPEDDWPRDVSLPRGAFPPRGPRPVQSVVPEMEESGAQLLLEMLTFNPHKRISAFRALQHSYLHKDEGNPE
# Sequence of UniProt Q9Y4K4 (whole entry, looked up): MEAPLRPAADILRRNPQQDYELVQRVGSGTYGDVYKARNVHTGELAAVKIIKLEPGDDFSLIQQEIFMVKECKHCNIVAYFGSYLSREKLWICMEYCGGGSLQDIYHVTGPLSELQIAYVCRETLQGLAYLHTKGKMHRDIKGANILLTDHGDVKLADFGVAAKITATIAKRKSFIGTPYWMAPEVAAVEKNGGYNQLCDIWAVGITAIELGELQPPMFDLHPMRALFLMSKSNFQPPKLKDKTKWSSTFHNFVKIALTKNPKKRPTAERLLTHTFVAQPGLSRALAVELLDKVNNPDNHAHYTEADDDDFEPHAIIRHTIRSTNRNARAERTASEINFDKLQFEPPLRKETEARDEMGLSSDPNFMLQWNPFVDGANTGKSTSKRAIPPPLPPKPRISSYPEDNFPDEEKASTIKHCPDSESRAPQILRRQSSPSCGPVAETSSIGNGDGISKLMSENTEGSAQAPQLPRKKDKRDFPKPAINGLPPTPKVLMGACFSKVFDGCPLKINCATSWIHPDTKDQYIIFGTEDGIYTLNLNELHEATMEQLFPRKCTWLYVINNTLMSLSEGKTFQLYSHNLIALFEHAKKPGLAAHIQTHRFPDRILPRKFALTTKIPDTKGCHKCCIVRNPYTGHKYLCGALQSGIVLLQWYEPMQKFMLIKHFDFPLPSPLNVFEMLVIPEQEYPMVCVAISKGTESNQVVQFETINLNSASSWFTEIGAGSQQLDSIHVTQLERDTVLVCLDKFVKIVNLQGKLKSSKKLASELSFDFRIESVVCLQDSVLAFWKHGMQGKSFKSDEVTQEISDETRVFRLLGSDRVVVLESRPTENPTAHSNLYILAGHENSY
# Sequence of UniProt P07333 (whole entry, looked up): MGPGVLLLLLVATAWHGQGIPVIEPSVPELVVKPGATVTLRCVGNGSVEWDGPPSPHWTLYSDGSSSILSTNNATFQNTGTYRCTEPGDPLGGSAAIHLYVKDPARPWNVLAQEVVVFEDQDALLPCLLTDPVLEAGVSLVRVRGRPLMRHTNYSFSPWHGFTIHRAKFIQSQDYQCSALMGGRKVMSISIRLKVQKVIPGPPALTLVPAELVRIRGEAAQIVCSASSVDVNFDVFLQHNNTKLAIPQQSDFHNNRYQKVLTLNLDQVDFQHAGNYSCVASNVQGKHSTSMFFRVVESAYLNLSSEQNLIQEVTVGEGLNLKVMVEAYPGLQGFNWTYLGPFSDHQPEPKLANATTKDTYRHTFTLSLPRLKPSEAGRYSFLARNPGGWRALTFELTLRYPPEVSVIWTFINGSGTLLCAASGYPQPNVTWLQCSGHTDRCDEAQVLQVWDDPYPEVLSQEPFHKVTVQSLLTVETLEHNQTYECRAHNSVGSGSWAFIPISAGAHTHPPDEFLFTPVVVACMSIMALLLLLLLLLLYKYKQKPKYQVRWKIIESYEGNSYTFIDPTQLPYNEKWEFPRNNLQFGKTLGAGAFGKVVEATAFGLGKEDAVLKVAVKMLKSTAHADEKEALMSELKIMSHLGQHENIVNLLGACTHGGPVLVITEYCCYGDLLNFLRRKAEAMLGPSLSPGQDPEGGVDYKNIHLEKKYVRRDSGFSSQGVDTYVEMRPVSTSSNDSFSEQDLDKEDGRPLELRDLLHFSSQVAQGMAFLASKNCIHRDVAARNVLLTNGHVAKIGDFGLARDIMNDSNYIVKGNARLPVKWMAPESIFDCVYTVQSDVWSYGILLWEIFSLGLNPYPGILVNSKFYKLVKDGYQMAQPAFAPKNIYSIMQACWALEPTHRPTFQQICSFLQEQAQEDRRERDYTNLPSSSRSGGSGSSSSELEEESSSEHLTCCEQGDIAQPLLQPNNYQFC
# Sequence of UniProt Q70CQ1 (whole entry, looked up): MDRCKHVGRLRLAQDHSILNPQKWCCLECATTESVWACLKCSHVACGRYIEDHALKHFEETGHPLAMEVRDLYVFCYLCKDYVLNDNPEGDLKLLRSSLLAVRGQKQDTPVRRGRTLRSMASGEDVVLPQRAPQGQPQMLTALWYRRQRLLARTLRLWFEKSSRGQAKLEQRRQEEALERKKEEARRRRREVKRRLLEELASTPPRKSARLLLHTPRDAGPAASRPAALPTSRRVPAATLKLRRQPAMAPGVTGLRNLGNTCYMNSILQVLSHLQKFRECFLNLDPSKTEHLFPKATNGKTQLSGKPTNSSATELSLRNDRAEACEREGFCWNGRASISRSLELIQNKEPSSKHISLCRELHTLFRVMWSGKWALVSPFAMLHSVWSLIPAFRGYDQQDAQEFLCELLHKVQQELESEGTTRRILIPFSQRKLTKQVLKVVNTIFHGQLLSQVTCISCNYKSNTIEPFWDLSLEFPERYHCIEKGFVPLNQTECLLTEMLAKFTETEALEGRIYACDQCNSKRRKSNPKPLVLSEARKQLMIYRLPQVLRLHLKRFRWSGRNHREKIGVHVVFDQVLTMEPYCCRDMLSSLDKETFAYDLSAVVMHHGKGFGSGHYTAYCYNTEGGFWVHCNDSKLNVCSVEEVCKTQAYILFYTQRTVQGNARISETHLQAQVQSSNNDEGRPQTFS
SMILES,target,test,system,setting,quantity,result
O=C(O)CCN1C(=O)c2ccccc2S1(=O)=O,"Ubiquitin carboxyl-terminal hydrolase 20, ZnF-UBD domain (USP20, Homo sapiens, UniProt Q9Y2K6)",,,,Kd,> 1000 µM
[2H]c1cc(C)c(NC(=O)c2cnc(Nc3cc(N4CCC(O)CC4)nc(C)n3)s2)c(Cl)c1,"KIT (Homo sapiens, UniProt P10721)",,,0.001 µM,inhibition,< 50%
Cc1cc(-c2ccnc3[nH]cc(F)c23)cc(F)c1[C@@]1(O)[C@H](C)CN(C(=O)CN)C[C@@H]1C,STK38,"ATP probe binding, KiNativ, item: Lys2 site",HEK293T cell lysate,10 µM,inhibition,57.7%
COc1cc(C(=O)NS(=O)(=O)c2ccccc2C)ccc1Cc1cn(C)c2ccc(NC(=O)OC3CCCC3)cc12,"Volume-regulated anion channel subunit LRRC8C, part LRRC8A IL1 chimera (LRRC8C, Homo sapiens, UniProt Q8TDW0, L105R)","ion current, inhibitor, whole-cell patch clamp",HCT LRRC8-/- cells,"100 µM, +100 mV",inhibition,83.1% and 88.4% and 91.1% and 92.7% and 91.9%
C#Cc1cc(-c2cc(Nc3nc(N[C@@H](C)c4ccc(F)cn4)ncc3Cl)n[nH]2)ccc1C=O,"CDK4 (Homo sapiens, UniProt P11802)","enzyme activity, inhibitor",,0.2 µM,inhibition,5.39%
O=C(Nc1cccc2c(=O)cc(-c3nnn[nH]3)oc12)c1ccc(OCCCCc2ccccc2)cc1,"LRRC8A/LRRC8C (Homo sapiens, UniProt Q8IWT6+Q8TDW0, M48D/T48D)","ion current, whole-cell patch clamp",HCT LRRC8-/- cells,"0.3 µM, -100 mV, T48D/M48D heteromers",inhibition,5.41% and -6.02% and -2.66%
Cc1sc2ncn(CC(=O)O)c(=O)c2c1C,"Ubiquitin carboxyl-terminal hydrolase 49, ZnF-UBD domain (USP49, Homo sapiens, UniProt Q70CQ1)",,,,Kd,> 1000 µM
[2H]c1cc(C)c(NC(=O)c2cnc(Nc3cc(N4CCCCC4)nc(C)n3)s2)c(Cl)c1,"CSF1R (Homo sapiens, UniProt P07333)",,,0.0001 µM,inhibition,> 50%
Cc1cc(-c2ccnc3[nH]cc(F)c23)cc(F)c1[C@@]1(O)[C@H](C)CN(C2CCS(=O)(=O)CC2)C[C@@H]1C,STK38,"ATP probe binding, KiNativ, item: Lys1 site",HEK293T cell lysate,10 µM,inhibition,19.8%
CC[C@@H]1[C@H](F)C(=O)N[C@@H]1COc1nccc2cc(C(N)=O)c(OC)cc12,"MAP4K5 (Homo sapiens, UniProt Q9Y4K4)","ATP-site probe binding, ActivX profiling, item: KHS1",THP-1 cell lysate,"0.2 mM, Lys1 site",inhibition,3.2%
